# Assay results from different studies.
# Numbered parts are unrelated; each lists some results of a single study.

# Set 1
# Target: Histone acetyltransferase KAT6A, winged helix 2, GST fusion (KAT6A, Homo sapiens, UniProt Q92794, residues 85-181)
# Method: protein binding microarray
# Form: double-stranded DNA, one strand shown
# Sample: in vitro
# Concentration: not given
# Notes: 8-mer, flanks averaged, mean of 2 arrays, mostly near background
# Reference: not given
# Direction: higher = stronger binding
# Construct (chain): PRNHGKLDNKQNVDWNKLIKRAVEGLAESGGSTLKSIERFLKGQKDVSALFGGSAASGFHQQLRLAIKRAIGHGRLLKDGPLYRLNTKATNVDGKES
Sequence,E-score
CTAAGTAA,-0.0481
ATCCAATG,-0.131
CAGACAAC,-0.0681
GTATTCAA,0.226

# Set 2
# Target: RNA binding protein fox-1 homolog 2, RRM domain, GST-SBP tag (RBFOX2, Homo sapiens, UniProt O43251-10, residues 100-194)
# Method: RNA Bind-n-Seq
# Form: RNA
# Sample: in vitro
# Concentration: 365 nM
# Notes: natural RNA segment, single round, ends assumed
# Reference: no-protein control
# Direction: higher = stronger binding
# Constant ends, left off below: GGGAGUUCUACAGUCCGACGAUC … UGGAAUUCUCGGGUGCCAA
# Residues (chain): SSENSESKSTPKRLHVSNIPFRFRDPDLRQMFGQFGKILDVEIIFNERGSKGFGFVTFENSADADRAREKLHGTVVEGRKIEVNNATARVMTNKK
Sequence,RBNS enrichment (R)
CCCUCCCUGCCCCAACUCUGACUUCGAAUAAGCCUUGGUCCUAUCCAGAAUACACUGGACACCAAGGCCAAGGACGUUCACGUUCUGCCCUCGCUGGGUCCAGCUGACUC,0.482
UGUGCCCAUCUGUAAAGGGGCAGCUGACAGUUUGUGGCAUCUUGCCAAGGGUCCCUGUGUGUGUGUAUGUGUGUGCAUGUGUGCGUGUCUCCAUGUGCGUCCAUAUUUAA,1.93
GGGAUCCAGAAUAUACCCCAAAGAGCAAGAAGUACUUCUUGCAUGACGACAGAGAUGAUGGUGUGGAUUAUUGGGCCAAAAGAGGAAGAGGUCGUGGUACUUUUCAACGU,1.34
UCUUCCUGCCUCCCCGUGGGAAGCCUCCGCCCUGAGGUCCGCUGGCCCACCACCCCUGGGUGCUCAGUUUCUACCAACAUGAGCCAGCAAGUCCUUGUGGUAGCCCUGGG,0.316
UCCAGGUGUCUGUGUUCCCAGGAACCAAAUGGGGAGUCUGGGGCCCGUUUUCCCCCCAGGGGGUGUCUAGGUAGCAACAGGUAUCGAGGACUCUCCAAACCCCCAAAGCA,1.74
AGAAAGAAUUUCAAGUUAACAGUAUCUAACUUUAUCAUAGUUGAUGUUAGUAAAUUUUAAAAAAUGAUUUUAUAUGUAUGACAAAAAUCUUUGUAAAAUGCGCAAGUGCA,18.6
UAUAAUACUGCUAAGAGAAGCCGGAAGCUUUUUUUUCUUGGAUUGCUUAUGAGCAGUAAUUUAAGAAAACCCACAAAACUUGAUUGUGAAAAACCGAAUAACCAAGCAGC,0.982

# Set 3
# Target: Ras GTPase-activating protein-binding protein 1, full length (G3BP1, Homo sapiens, UniProt Q13283)
# Chain of UniProt Q13283 (whole entry, looked up): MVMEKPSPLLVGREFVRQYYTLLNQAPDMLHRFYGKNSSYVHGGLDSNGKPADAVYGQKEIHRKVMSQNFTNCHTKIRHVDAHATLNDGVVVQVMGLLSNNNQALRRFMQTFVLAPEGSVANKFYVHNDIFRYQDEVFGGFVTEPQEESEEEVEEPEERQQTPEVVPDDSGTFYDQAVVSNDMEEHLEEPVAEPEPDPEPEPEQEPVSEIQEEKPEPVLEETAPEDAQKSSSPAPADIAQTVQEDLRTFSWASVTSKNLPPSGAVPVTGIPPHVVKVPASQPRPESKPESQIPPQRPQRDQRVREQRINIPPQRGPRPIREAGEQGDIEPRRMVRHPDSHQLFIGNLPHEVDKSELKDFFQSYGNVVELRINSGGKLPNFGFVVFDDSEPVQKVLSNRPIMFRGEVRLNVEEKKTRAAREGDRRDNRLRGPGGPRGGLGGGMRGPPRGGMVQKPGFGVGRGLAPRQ
# Method: RNA Bind-n-Seq
# Form: RNA
# Sample: in vitro
# Concentration: 200 nM
# Notes: whole 134-nt RNA, ends assumed
# Together with: 150 mM KCl
# Reference: input library
# Direction: higher = stronger binding
# Constant ends, left off below: GGGAGUUCUACAGUCCGACGAUC … UGGAAUUCUCGGGUGUCAAGG
Sequence,log2 enrichment
UCCUGUGCUACACAUCGUAUGUACCGAAUCGGGUUUUUGGGGUUUUUGGGUUUUUGGGGAAAGUAUUAUGUUACGCCGUUCGGAUCUGCA,0.174
GCCCAUGCUAAAGUAAGAUUGUCUAACAAAGUUGAAGCCAUUGAUGUGGAAGAGGCCAAACGCCUCCAUCGGGAAGCUCUGAAGCAGUCU,-0.994
GCAGGAAGUAAAAACAAAUGGAAAUGCUUCGGAUAGUGGCAAGGGUGGGGGUUGCUAAGGAAAGGGUGGGAUGGGAGUGGGUAAAGAGUU,0.786
CCUGUGCUACACAUCGUAUGUACCGAAUCGGGGCCCCCCGGGCCCCCCGGGCCCCCCGGGGAAAGUAUUAUGUUACGCCGUUCGGAUCUG,-0.684
UGGCCCUGGUGGCAUGCGGGGAGGAAGAGGUGGCCUCAUGGUUCGUGGUGGUCCCGGUGGAAUGUUCAGAGGUGGCCGUGGUGGAGACAG,0.0869
UUGUGAUAGCCAAGUGGGACUACACCGCCCAGCAGGACCAGGAGCUGGACAUCAAGAAGAACGAGCGGCUGUGGUUGCUGGACGACUCCA,-1.53
GAAAUUGAACCAGCAGCGAUGAAAGCAGCAGCUGCUGCCCCUGCCUCAGAGGAUGAGGACGAUGAGGAUGACGAAGAUGAUGAGGAUGAC,-0.421

# Set 4
# Substance: PhoQ, residues 284 288 289 292 302 303 GLASVI
# Method: Sort-seq
# Refers to: YFP reporter
# Sample: E. coli
# Notes: PhoQ-PhoP variant library
# Together with: 10 µM Mg2+
# Reference: high Mg2+ state
# Direction: higher = stronger signaling
target,fold induction
"PhoP, residues 12 14 15 18 19 LFHKL (Escherichia coli, UniProt P23836)",2.06
"PhoP, residues 12 14 15 18 19 QQAYL (Escherichia coli, UniProt P23836)",15.5
"PhoP, residues 12 14 15 18 19 GMGLL (Escherichia coli, UniProt P23836)",21.2
